Published values of several laboratories.
Parts stem from different laboratories: compare values within a part only. Positions count from the first letter of the parent shown.

Sample 1
Target: POU domain, class 6, transcription factor 1, POU and homeodomain (POU6F1, Homo sapiens, UniProt Q14863, residues 311-611)
Method: protein-binding microarray
Molecule type: hairpin DNA
Sample: in vitro
Tested at: not given
Setting: whole hairpin DNA, median over replicate spots
Relative to: not given
Reading: higher = stronger binding
Constant ends, left off below: GAGGCCAT … ATGGCCTCACACTCTT
Residues (chain): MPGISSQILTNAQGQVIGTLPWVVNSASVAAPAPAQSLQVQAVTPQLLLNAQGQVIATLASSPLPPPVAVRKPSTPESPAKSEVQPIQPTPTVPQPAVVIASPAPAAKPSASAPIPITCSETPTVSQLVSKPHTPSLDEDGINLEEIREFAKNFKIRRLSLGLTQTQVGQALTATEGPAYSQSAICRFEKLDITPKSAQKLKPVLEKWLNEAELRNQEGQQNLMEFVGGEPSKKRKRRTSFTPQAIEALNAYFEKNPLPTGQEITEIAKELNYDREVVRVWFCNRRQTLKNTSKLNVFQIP
The median fluorescence of `CGTTAGGTGCCTCCTGGCACCTAACG` is reported as 336 a.u.
For `AATGAGGCGCCTCCTGGCGCCTCATT (5mC at 16)`, the median fluorescence was 2490 a.u.
With `AAGGAGGTGCCTCCTGGCACCTCCTT` the median fluorescence was 446 a.u.
The median fluorescence of `CGTTAGGTGCCTCCTGGCACCTAACG (5mC at 33)` is reported as 376 a.u.
`AATTGGGTGCCTCCTGGCACCCAATT (5mC at 30)` has a median fluorescence of 1210 a.u.
`AATGAGGAGCCTCCTGGCTCCTCATT` has a median fluorescence of 2100 a.u.
`AAAGAGGTGCCTCCTGGCACCTCTTT` has a median fluorescence of 454 a.u.
With `CATGAGGTGCCTCCTGGCACCTCATG` the median fluorescence was 391 a.u.

Sample 2
Substance: PhoQ, residues 284 288 289 292 302 303 AEGLLW
Method: Sort-seq
Refers to: YFP reporter
Sample: E. coli
Setting: PhoQ-PhoP variant library
Added: 10 µM Mg2+
Relative to: high Mg2+ state
Reading: higher = stronger signaling
For PhoP, residues 12 14 15 18 19 STHWV (Escherichia coli, UniProt P23836): fold induction read 5.78.
The fold induction was 4.73 (PhoP, residues 12 14 15 18 19 QYCSL (Escherichia coli, UniProt P23836)).
It gave 1.29 for fold induction (PhoP, residues 12 14 15 18 19 SHWTV (Escherichia coli, UniProt P23836)).

Sample 3
Target: Ras GTPase-activating protein-binding protein 1, full length (G3BP1, Homo sapiens, UniProt Q13283)
Chain of UniProt Q13283 (whole entry, looked up): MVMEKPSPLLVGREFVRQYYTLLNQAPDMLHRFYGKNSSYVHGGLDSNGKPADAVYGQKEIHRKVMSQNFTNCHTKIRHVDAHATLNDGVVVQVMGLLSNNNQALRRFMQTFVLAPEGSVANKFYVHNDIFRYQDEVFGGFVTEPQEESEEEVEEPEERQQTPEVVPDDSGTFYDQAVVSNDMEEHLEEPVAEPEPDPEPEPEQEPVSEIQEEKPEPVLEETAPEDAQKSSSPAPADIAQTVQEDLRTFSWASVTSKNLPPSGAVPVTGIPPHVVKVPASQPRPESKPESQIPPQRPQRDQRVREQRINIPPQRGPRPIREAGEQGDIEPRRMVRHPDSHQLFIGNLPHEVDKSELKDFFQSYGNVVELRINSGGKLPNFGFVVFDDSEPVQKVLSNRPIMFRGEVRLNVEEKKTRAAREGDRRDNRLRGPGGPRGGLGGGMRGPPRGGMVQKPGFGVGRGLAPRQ
Method: RNA Bind-n-Seq
Molecule type: RNA
Sample: in vitro
Tested at: 200 nM
Setting: whole 134-nt RNA, ends assumed
Added: 150 mM KCl
Relative to: input library
Reading: higher = stronger binding
With `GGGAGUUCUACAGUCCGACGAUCAGUCCUGUGCUACACAUCGUAUGUACCGAAUCGGUUUUUUUGGAAAGGUUUUUUUGGAAAGUAUUAUGUUACGCCGUUCGGAUCUGCACUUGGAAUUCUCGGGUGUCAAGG` the log2 enrichment was -1.66.
`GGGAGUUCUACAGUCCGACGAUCUGGGAGGUGGAUUUUGUUUAUUUUUUUAGCUCAUUUCCAGGGGUGGGAAUUUUUUUUUAAUAUGUGUCAUGAAUAAAGUUGGUUUUGAAAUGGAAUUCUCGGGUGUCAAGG` has a log2 enrichment of 0.158.
With `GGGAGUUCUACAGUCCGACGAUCUGUCAUGGAUUCAAGUUAUUAAAAGCAUAAGUUUGGAAGACAGGCUUGCCGAAAUUGAGGACAUGAUUAAAAUUGCAGUGAAGUUUGAAAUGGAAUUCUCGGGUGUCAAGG` the log2 enrichment was -2.55.
For `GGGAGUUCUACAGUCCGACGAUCCAAGUCCUGUGCUACACAUCGUAUGUACCGAAUCGGGCCCGGGCCCGGGCCCGGGAAAGUAUUAUGUUACGCCGUUCGGAUCUGCACUUCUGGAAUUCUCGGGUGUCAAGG`, the log2 enrichment was -1.04.
For `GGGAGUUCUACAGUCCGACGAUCACCAUGCAGGUGGGCAUCUUGGGGAAGUGGGGCAAGGGGGGGAUAGGGAGGGGGGUAACACUUUGGGAACAGGUGGUCCCAGGUCGUUUCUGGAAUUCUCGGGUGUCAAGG`, the log2 enrichment was 1.53.
The log2 enrichment of `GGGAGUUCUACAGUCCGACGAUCUGACCCUGGUGGCAUGCGGGGAGGAAGAGGUGGCCUCAUGGAUCGUGGUGGUCCCGGUGGAAUGUUCAGAGGUGGCCGUGGUGGAGACAGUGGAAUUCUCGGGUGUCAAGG` is reported as 0.419.
`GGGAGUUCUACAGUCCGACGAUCAAGUCCUGUGCUACACAUCGUAUGUACCGAAUCAAAUUUAAAUUUAAAUUUUUAAAAAAGUAUUAUGUUACGCCGUUCGGAUCUGCACUUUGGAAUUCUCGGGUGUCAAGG` has a log2 enrichment of -1.53.
With `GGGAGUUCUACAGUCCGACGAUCGAGGAGCUGCUGCUGGAGCCCGAGCCGGAGCCCGAGCCCGAAGAGGAGCCGCCCCGGCCCCGCGCCCCCCCGGGAGCUCCGGGCCCUGGGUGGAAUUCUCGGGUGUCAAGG` the log2 enrichment was -1.23.
`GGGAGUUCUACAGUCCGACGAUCGUCCUGUGCUACACAUCGUAUGUACCGAAUCGGAAAAAAAGGUUUUUUUGGAAAAAGGAAAGUAUUAUGUUACGCCGUUCGGAUCUGCACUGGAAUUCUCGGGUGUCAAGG` has a log2 enrichment of -1.56.

Sample 4
Target: ABI1, truncated, D143A, DHFR fusion (Arabidopsis thaliana)
Method: DHFR PCA, deep sequencing
Sample: yeast
Setting: methotrexate growth selection, single substitutions
Added: (+)-ABA 0 µM
Relative to: wild-type fitted maximum
Reading: higher = stronger binding
Starting sequence: PYL1, truncated, DHFR fusion (Arabidopsis thaliana); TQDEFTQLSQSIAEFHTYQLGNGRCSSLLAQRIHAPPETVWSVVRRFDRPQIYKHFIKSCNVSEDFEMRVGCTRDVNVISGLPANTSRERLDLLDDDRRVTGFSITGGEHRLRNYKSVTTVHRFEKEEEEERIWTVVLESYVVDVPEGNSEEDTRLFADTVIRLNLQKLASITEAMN; partner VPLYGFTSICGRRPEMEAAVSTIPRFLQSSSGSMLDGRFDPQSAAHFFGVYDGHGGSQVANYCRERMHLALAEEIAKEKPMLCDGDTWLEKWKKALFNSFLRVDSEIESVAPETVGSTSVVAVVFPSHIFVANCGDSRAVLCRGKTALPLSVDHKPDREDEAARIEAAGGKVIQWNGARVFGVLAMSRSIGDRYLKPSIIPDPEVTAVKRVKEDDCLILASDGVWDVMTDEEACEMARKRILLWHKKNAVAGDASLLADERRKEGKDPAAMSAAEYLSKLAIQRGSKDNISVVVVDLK
`Q10R`: “relative binding score” 16.6%.
For `G108V`, “relative binding score” read -3.62%.
Under “relative binding score”, `V142S` is recorded as 7.19%.
For `T119K`, “relative binding score” read 1.56%.
For `A158T`, “relative binding score” read 1.77%.
For `D92G`, “relative binding score” read 1.63%.
Under “relative binding score”, `S140E` is recorded as 6.42%.

Excerpt of the above (sample 3):
`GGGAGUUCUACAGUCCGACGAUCUGGGAGGUGGAUUUUGUUUAUUUUUUUAGCUCAUUUCCAGGGGUGGGAAUUUUUUUUUAAUAUGUGUCAUGAAUAAAGUUGGUUUUGAAAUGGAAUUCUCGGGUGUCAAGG` has a log2 enrichment of 0.158.
With `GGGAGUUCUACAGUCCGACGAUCGAGGAGCUGCUGCUGGAGCCCGAGCCGGAGCCCGAGCCCGAAGAGGAGCCGCCCCGGCCCCGCGCCCCCCCGGGAGCUCCGGGCCCUGGGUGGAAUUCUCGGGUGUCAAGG` the log2 enrichment was -1.23.
For `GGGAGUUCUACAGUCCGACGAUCCAAGUCCUGUGCUACACAUCGUAUGUACCGAAUCGGGCCCGGGCCCGGGCCCGGGAAAGUAUUAUGUUACGCCGUUCGGAUCUGCACUUCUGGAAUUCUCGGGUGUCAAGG`, the log2 enrichment was -1.04.
